Experimental data from different studies.
Each line is one published result; not all experiments were run side by side.

C=CC(=O)Nc1cccc(Cn2ncc3cnc(Nc4cnn(CCOC)c4)nc32)c1
percent of control (BRSK1 human; binding, KINOMEscan; 100 nM; lower = stronger binding): 100%

c1ccc(-c2n[nH]cc2-c2ccnc3ccccc23)nc1
log2 fold change (CDC15 (Candida albicans); kinase binding, MIB/MS competition; Candida albicans lysate; 1 µM; baseline: DMSO): -0.02

CCN(CC)CC(=O)Nc1cccc(-n2cc(-c3ccc4ccc(-c5cn(-c6cccc(NC(=O)CN(CC)CC)c6)nn5)cc4c3)nn2)c1
fold regulation (RCC4; PCR angiogenesis array, measured: MMP14; 5 x IC50, 4 h, normoxia; baseline: untreated): -1.39

Nc1ncc(-c2cc(-c3cnn(CC(F)(F)F)c3)ncc2F)nc1C(=O)NC1CNCC(F)C1 (stereo not shown)
remaining binding (IKK-beta; KINOMEscan competition binding; 1 µM; baseline: DMSO control): 43%

Cc1ncsc1-c1ccc(C(C)NC(=O)C2CC(O)CN2C(=O)C(NC(=O)CCCCCCCCCCN2CCCC(Nc3ncc(Cl)c(Nc4ccccc4S(=O)(=O)C(C)C)n3)C2)C(C)(C)C)cc1 (stereo not shown)
log2 fold change (22Rv1; RNA-seq, measured: ZNF526 mRNA; concentration not given; baseline: DMSO): -1.98

COC1CN([C@H]2CC[C@H]([C@@]3(C)Oc4c(Cl)cc(C(=O)NCc5c(SC)cc(C)[nH]c5=O)c(C)c4O3)CC2)C1
log2 fold change (RNA-seq, measured: FZD3 mouse homolog; mouse, HT-1376 xenograft, whole blood; dose not given; baseline: vehicle): 2.04

COc1ccccc1-c1ccncc1C(=O)Nc1nnc(OCc2ccc(Cl)cc2)s1
colony survival (PEO1 BRCA2-mutant ovarian cancer; 1.00 µM, added: olaparib 0.5 µM): 0%

C=C(NC(=O)c1csc(-c2nc3c(cc2O)-c2nc(cs2)C(=O)NC(C(C)O)C(=O)NC(=C(C)OC)c2nc(cs2)C(=O)NC2c4nc(cs4)C(=O)NC(COC(=O)c4c5c6c(cccc6n4O)COC(=O)C(OC4CC(C)(O)C(N(C)C)C(C)O4)C2OC5)c2nc-3cs2)n1)C(N)=O (stereo not shown)
bacterial load (Streptococcus pneumoniae; -25, immunocompromised mice, lung infection, lung; 4 mg/kg/day once daily, 24 h post-dose): 6.85 log CFU/g

CNS(=O)(=O)Nc1nccc(Cc2c(C)c3ccc(Oc4ncccc4F)cc3oc2=O)c1F
IC50 (BALL-1; cell viability; 7 days): > 1 µM

C=CC(=O)N1[C@@H](c2ccc3c(c2)OCO3)c2[nH]c3ccccc3c2C[C@H]1C(=O)N1CCN(C)CC1
log2 fold change (CCNE1 WT-3xFLAG:CDK2 complex; co-IP TMT proteomics, measured: RBL2; HEK-293T; 20 µM, 6 h; baseline: DMSO): 0.07
